Measured values of several laboratories.
Protocols differ between the studies behind these lines. ± marks the error that the study gave.

| SMILES | target | read-out | mode | technique | strain | IC50 |
| --- | --- | --- | --- | --- | --- | --- |
| CC(C)[C@H](NC(=O)c1ccc(CNc2nc3c(c(=O)[nH]2)CCC3)cc1)C(=O)NC1CNC1 | Neutrophil collagenase (MMP8, Homo sapiens, UniProt P22894) | enzyme activity | inhibitor |  |  | > 5000 nM |
| Nc1ncnc2c1ncn2[C@@H]1O[C@H](CSCCNC(=O)NCCc2ccccc2)[C@@H](O)[C@H]1O | DNA (cytosine-5)-methyltransferase 3A, with DNMT3L (DNMT3A, Homo sapiens, UniProt Q9Y6K1) |  | inhibitor |  |  | > 50000 nM |
| CC(=O)N1CCC[C@H]1C(=O)N[C@@H](CC(C)C)C(=O)N[C@H]1C[C@H](CCCCCCCCc2ccccc2)C(=O)NCCCC[C@@H](C(N)=O)NC(=O)[C@H]([C@@H](C)OP(=O)(O)O)NC(=O)[C@H](CO)NC1=O | Serine/threonine-protein kinase PLK3, polo-box domain (PLK3, Homo sapiens, UniProt Q9H4B4) | enzyme activity | inhibitor |  |  | 1100 ± 60 nM |
| Cc1cc(N2CCNCC2)nc(C#N)n1 | Phosphatidylinositol 3,4,5-trisphosphate 5-phosphatase 1, Ptase-C2 domains (INPP5D, Homo sapiens, UniProt Q92835) | enzyme activity | inhibitor |  |  | 930000 nM |
| CC[C@@H]1C(=O)N(C)c2cnc(Nc3ccc(C(=O)NCCCC[C@H](NC(=O)[C@@H](NC(=O)[C@H](CO)NC(=O)[C@H](Cc4cncn4CCCCCCCCc4ccccc4)NC(=O)[C@H](CC(C)C)NC(=O)[C@@H]4CCCN4C(C)=O)[C@@H](C)OP(=O)(O)O)C(N)=O)cc3OC)nc2N1C1CCCC1 | Serine/threonine-protein kinase PLK3 (PLK3, Homo sapiens, UniProt Q9H4B4) | enzyme activity | inhibitor |  |  | 21 nM |
| COc1ccc2nc(C)cc(OCC(=O)Nc3cc(C)cc(C)c3)c2c1 | Cytochrome P450 2D6 (CYP2D6, Homo sapiens, UniProt P10635) |  | inhibitor |  |  | 4600 nM |
| COCC1CCCCN1C(=O)n1cc(C(O)(c2ccccc2)c2ccccc2)nn1 (stereo not drawn) | sn-1-specific diacylglycerol lipase ABHD11 (Mus musculus, UniProt Q8K4F5) | enzyme activity | inhibitor |  |  | 1 nM |
| CC1(C)C(/C=C/C2=C(Oc3ccc(S(=O)(=O)O)cc3)C(=C/C=C3/N(CCCCS(=O)(=O)O)c4ccc(S(=O)(=O)O)cc4C3(C)C)/CCC2)=[N+](CCCCCC(=O)NC(CC(=O)NCCCCNC(=O)CCCCCCC(=O)NCCCC[C@H](NC(=O)N[C@@H](CCC(=O)O)C(=O)O)C(=O)O)CC(=O)NCCCC[C@@H]2NC(=O)[C@@H](Cc3ccccc3)NC(=O)[C@H](CC(=O)O)NC(=O)CNC(=O)[C@H](CCCNC(=N)N)NC2=O)c2ccc(S(=O)(=O)[O-])cc21 (stereo partly drawn) | Integrin alpha-V/beta-3 (Homo sapiens, UniProt P05106+P06756) | ligand displacement |  | FP |  | 90 nM |
| COc1ccccc1-c1nc2sc3c(c2c(=O)o1)CCC3 | Procathepsin L (CTSL, Homo sapiens, UniProt P07711) | enzyme activity | inhibitor | FRET |  | > 100000 nM |
| CCCN1CCc2cccc3c2[C@H]1Cc1ccc(O)c(O)c1-3 | Carbamate kinase (Giardia intestinalis, UniProt A8BB85) | enzyme activity |  | ATP luminescence |  | 10300 nM |
| O=C(/C=C/C=C/c1ccc2c(c1)OCO2)NC(Cc1c[nH]c2ccccc12)C(=O)O (stereo not drawn) | Peroxisome proliferator-activated receptor gamma (PPARG, Homo sapiens, UniProt P37231) | ligand displacement |  | FP |  | 1030 nM |
| CCCC[C@H](NC(=O)[C@H](C)NC(=O)[C@H](CCC(=O)O)NC(=O)[C@H](Cc1ccccc1)NC[C@H](CC(C)C)NC(=O)[C@@H](NC(=O)[C@@H](N)CCCNC(=N)N)C(C)C)C(=O)O | Gag-Pol polyprotein, protease (gag-pol, Human immunodeficiency virus 1, UniProt P12497) | enzyme activity | inhibitor | FRET | NL4-3 wild type | 2.6 ± 0.4 nM |

A few entries again:
| SMILES | target | read-out | mode | technique | strain | IC50 |
| --- | --- | --- | --- | --- | --- | --- |
| O=C(/C=C/C=C/c1ccc2c(c1)OCO2)NC(Cc1c[nH]c2ccccc12)C(=O)O (stereo not drawn) | Peroxisome proliferator-activated receptor gamma (PPARG, Homo sapiens, UniProt P37231) | ligand displacement |  | FP |  | 1030 nM |
| CCCC[C@H](NC(=O)[C@H](C)NC(=O)[C@H](CCC(=O)O)NC(=O)[C@H](Cc1ccccc1)NC[C@H](CC(C)C)NC(=O)[C@@H](NC(=O)[C@@H](N)CCCNC(=N)N)C(C)C)C(=O)O | Gag-Pol polyprotein, protease (gag-pol, Human immunodeficiency virus 1, UniProt P12497) | enzyme activity | inhibitor | FRET | NL4-3 wild type | 2.6 ± 0.4 nM |
